Results pooled from the literature.
Parts stem from different laboratories: compare values within a part only. Changes are numbered by the printed parent chain.

Series 1
Target: RNA binding protein fox-1 homolog 2, RRM domain, GST-SBP tag (RBFOX2, Homo sapiens, UniProt O43251-10, residues 100-194)
Method: RNA Bind-n-Seq
Molecule type: RNA
Medium: in vitro
Tested at: 365 nM
Notes: natural RNA segment, single round, ends assumed
Reference: no-protein control
Direction: higher = stronger binding
Quantity: RBNS enrichment (R)
Shared flanks, not repeated: GGGAGUUCUACAGUCCGACGAUC … UGGAAUUCUCGGGUGCCAA
Target sequence (chain): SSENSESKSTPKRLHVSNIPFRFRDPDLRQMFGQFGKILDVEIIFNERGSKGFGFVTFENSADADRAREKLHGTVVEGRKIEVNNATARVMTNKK
Sequence = CUUGAGGUCUCUCCUUUGAGCCGUGGUCACCGAGAGGGUUGAGGACGCAGCACCCGAGGUCCCAGCCUUUGCAGGAGCCUCCCUGGGCUUAGCUGGACUUAGAUCUUCGG; result = 0.293
Sequence = GACUUAGGUCAUGUCACAUUGUUGAAGCCAUUCAUUCUUGAGAUGAUUCUGUACAGGAGUGCUCCUAAUCGCCACUGCACCCUAAUUGCUGAGUCAUGUGCUGAGCUACU; result = 0.282
Sequence = GAGAGUGACCUCAGGGGACCCAGUGCUGCCACAGGUUGAACAGUGCCAUCAAGUUACGGACAAGGAUUCACAGUGUGCCUGGCUGAUGUCAAUAUUUUCUCAUGUUAAUA; result = 0.198
Sequence = UUGAGAAUCACUGUGGGCGUCCAUUCUUAUCAACUAAAUCUCCACAGGGUUUUUGUGCUGGUGUGGAUUAGUUUAACUCUUGUAUUCAACCGUUAGUGCUACCACCUUCU; result = 0.506
Sequence = UUAUUCUUUUUCUUUACAGCUGAAAUUGCUUUAAAUGAUGGUUAAAAUUACAAAUUAAAUUGUUAAUUUUUAUCAAUGUGAUUGUAAUUAAAAAUAUUUUGAUUUAAAUA; result = 0.606
Sequence = GUGGUGAUUCCUGAGACUGGCAACAUGCCACAGAGUUGAAAUAAUACUCAGAACUCAGGAGCCUUGCCCAGCCGCUCAGUCACCUGCCUGCUGUGCUUCCGGGCAGUGCC; result = 0.301
Sequence = AAAUUUUAAGUCUUCCAGUCUUCCAUGUGAACUUUAGGCCCAAAGUUUCUUAUGUAUCACACAUCCCCCAAAUAAGUGAUUUUUUCCCAGUGCUUUGUACUGUCAACUGC; result = 0.737
Sequence = GUGGGCAUUUCCUCCUCCUGUGAGCCUUGCAGCCCUUGUAUGGCGGCUUUGGUCUGGGCAGUGCAUGUGUUAGUAGUGUACGUGGGCAGGUCGGGCUUUCUAAGCUUUGU; result = 3.96

Series 2
Target: CREBL2, bZIP domain (human)
Method: DHFR protein complementation
Medium: yeast
Notes: single substitutions, most at no-binding floor
Reference: wild-type JUN-FOS pair
Direction: higher = stronger binding
Quantity: binding fitness
Parent: JUN, bZIP domain (human); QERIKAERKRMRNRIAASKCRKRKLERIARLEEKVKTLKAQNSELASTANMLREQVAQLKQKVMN; partner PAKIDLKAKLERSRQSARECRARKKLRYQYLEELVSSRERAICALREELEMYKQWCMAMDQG
Change = E44Q; result = -1.58 natural log
Change = A46C; result = -1.57 natural log
Change = A40R; result = -1.49 natural log
Change = L52A; result = -1.45 natural log
Change = T48R; result = -1.4 natural log
Change = K39V; result = -1.52 natural log
Change = K36M; result = -1.24 natural log
Change = T37G; result = -1.49 natural log

Further values, each from its own experiment
SMILES = CCN1CCC[C@H]1CNC(=O)c1c(O)c(Cl)cc(Cl)c1OC; tested on = Sarcocystis neurona; assay = parasite activity; setting = 10 µM, 96 h; quantity = activity class; result = inactive
SMILES = CC(C)n1cnc(-c2ccc(F)cc2)c1-c1ncc(C(=O)Nc2ccc(N3CCN(C)CC3)cc2)[nH]1; test system = human, idiopathic pulmonary fibrosis; setting = 30 mg once daily, trial, treatment-emergent; quantity = patients with drug-induced liver injury; result = 0%

Excerpt of the above (series 2):
Change = L52A; result = -1.45 natural log
Change = T48R; result = -1.4 natural log
